Assay results from different studies.
Parts stem from different laboratories: compare values within a part only.

Set 1 — technique: protein-binding microarray; molecule type: double-stranded DNA, one strand shown; medium: in vitro; concentration: 250 nM; notes: 60-bp whole probe; added: salmon DNA 0.4 mg/ml; relative to: random background probes; direction: higher = stronger binding; shared flanks, not repeated: GCCTAGCAC … GTCTTGATTCGCTTGACGCTGCTG
Target: Interferon regulatory factor 7, full length, phosphomimetic (IRF7, Homo sapiens, UniProt Q92985, residues 1-503, S101K/S471D/S472D/S475D/S476D/S477D/S483D/S484D/S487D)
UniProt Q92985, sequence (whole entry, unmodified, looked up): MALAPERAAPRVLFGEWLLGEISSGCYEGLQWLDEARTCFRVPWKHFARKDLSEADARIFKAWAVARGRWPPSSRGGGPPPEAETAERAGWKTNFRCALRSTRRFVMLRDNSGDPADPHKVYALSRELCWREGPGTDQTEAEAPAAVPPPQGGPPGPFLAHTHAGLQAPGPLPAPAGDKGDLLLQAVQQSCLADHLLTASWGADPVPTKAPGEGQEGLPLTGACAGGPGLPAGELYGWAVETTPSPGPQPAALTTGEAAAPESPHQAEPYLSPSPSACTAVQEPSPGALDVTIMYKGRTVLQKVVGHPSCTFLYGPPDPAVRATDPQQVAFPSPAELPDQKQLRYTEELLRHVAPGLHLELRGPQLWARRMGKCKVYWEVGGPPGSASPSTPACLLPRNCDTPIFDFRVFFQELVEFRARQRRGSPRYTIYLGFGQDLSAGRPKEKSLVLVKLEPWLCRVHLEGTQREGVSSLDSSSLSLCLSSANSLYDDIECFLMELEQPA
For `TTAGGACGGGGTCTCGGTTAGTGCTAG`, the log fluorescence was 0.427 z-score.
With `CTTTAACTTATTCTCTACTTGTGCTAG` the log fluorescence was 1.25 z-score.
For `GGCGGACTGGGTCTCGGGACGTGCTAG`, the log fluorescence was -0.838 z-score.
For `GACGATATGGGGTATCGAGACGTGCTA`, the log fluorescence was -0.515 z-score.
`GACGGTCTGCTTCTCCTGACGTGCTAG` has a log fluorescence of -0.347 z-score.

Set 2 — technique: competition protein-binding microarray; molecule type: double-stranded DNA, one strand shown; medium: in vitro; concentration: 2 µM; added: Pho4 competitor, 0.05 µM; direction: higher = stronger binding; shared flanks, not repeated: … GTCTTGATTCGCTTGACGCTGCTG
Target: Centromere-binding protein 1, full length, His-tagged (CBF1, Saccharomyces cerevisiae, UniProt P17106, residues 1-351)
UniProt P17106, sequence (whole entry, looked up): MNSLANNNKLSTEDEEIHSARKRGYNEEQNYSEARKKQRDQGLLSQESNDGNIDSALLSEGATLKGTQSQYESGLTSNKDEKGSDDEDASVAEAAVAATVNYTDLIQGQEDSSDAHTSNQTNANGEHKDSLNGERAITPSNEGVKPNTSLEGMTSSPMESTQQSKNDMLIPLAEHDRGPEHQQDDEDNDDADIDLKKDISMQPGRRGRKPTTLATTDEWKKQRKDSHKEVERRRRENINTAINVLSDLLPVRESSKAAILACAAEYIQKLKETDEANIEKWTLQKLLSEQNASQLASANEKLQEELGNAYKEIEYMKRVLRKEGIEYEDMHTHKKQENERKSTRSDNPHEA
Notes: whole 60-bp probe, lowest competitor level
The fluorescence intensity of `CGGGGTTAAGTTTTTCACGTGAGCTGCTTGCAGCAG` is reported as 1010 a.u.
`GTCTTGTCTCATTGCAAGGTGGGTGTCCCCACTTCA` gave a fluorescence intensity of 68.2 a.u.
The fluorescence intensity of `ACCTAGAAGAAGCCACTCGGGCACTAACTCGCCAGG` is reported as 86.9 a.u.
The fluorescence intensity of `TCACTACGCACAAACCATGTGGATGCCCAATCTGTA` is reported as 83.3 a.u.
For `CATACCCAACCTTTTCACGTGCGATAAGATATTTGT`, the fluorescence intensity was 865 a.u.
The fluorescence intensity of `AAGACAGATGGCCGACACGCACTTTCACAGTTTCGC` is reported as 65.3 a.u.

Set 3 — technique: universal PBM; molecule type: double-stranded DNA, one strand shown; medium: in vitro; concentration: 600 nM; direction: higher = stronger binding
Target: Sal-like protein 4, full length isoform A (SALL4, Homo sapiens, UniProt Q9UJQ4, residues 1-1053)
UniProt Q9UJQ4, sequence (whole entry, looked up): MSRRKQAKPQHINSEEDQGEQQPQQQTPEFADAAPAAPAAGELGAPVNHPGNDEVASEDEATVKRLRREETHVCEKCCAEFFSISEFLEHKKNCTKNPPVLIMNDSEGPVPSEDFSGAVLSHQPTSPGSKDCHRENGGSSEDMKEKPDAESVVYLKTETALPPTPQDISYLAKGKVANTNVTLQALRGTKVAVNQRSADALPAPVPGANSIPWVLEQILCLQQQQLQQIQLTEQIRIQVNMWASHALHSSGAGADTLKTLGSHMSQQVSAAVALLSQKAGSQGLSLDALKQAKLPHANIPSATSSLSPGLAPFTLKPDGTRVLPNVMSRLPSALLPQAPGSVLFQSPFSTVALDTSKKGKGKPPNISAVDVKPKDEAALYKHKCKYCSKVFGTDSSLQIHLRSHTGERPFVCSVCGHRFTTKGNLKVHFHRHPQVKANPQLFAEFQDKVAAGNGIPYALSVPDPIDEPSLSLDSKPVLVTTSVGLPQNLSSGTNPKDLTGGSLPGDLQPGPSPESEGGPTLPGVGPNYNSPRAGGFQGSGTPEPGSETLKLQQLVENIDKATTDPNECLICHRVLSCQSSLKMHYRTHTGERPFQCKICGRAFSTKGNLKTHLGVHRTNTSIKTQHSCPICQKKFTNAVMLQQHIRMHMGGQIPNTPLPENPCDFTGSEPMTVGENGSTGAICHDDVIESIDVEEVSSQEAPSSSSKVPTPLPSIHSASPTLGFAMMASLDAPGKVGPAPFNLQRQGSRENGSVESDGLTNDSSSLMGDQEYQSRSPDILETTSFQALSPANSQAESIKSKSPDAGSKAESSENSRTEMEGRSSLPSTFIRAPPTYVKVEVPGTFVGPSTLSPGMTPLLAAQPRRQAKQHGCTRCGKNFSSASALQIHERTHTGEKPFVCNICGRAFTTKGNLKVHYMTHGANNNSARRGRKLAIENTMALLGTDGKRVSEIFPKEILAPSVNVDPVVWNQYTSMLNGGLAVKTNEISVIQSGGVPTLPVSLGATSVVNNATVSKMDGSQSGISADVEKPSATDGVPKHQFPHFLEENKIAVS
Notes: 8-mer, flanks averaged, mean of replicates
For `AAACCGCA`, the E-score was -0.243.
For `ACACGAGA`, the E-score was -0.103.
`CCTGGTAA` gave an E-score of -0.117.
`TCTTTACA` gave an E-score of 0.159.
`AAGCATTG` gave an E-score of -0.0271.

Other studies, line by line
With `PhoQ, residues 284 288 289 292 302 303 SCCLKL` the fold induction was 1.39 (PhoP, residues 12 14 15 18 19 DLLYY (Escherichia coli, UniProt P23836); Sort-seq, item: YFP reporter; E. coli; PhoQ-PhoP variant library, added: 10 µM Mg2+; relative to: high Mg2+ state, higher = stronger signaling).

For quick reference, copied from above (set 3):
For `AAACCGCA`, the E-score was -0.243.
For `ACACGAGA`, the E-score was -0.103.
`CCTGGTAA` gave an E-score of -0.117.
